{"data": "Measured values gathered from unrelated publications", "ABCG2": "Broad substrate specificity ATP-binding cassette transporter ABCG2 (ABCG2, Homo sapiens, UniProt Q9UNQ0)", "note": "Each line is one published result; not all experiments were run side by side. Several values in a cell are separate wells, animals, samples, runs or records. ± marks the error that the study gave.", "chain of UniProt Q9UNQ0 (whole entry, looked up)": "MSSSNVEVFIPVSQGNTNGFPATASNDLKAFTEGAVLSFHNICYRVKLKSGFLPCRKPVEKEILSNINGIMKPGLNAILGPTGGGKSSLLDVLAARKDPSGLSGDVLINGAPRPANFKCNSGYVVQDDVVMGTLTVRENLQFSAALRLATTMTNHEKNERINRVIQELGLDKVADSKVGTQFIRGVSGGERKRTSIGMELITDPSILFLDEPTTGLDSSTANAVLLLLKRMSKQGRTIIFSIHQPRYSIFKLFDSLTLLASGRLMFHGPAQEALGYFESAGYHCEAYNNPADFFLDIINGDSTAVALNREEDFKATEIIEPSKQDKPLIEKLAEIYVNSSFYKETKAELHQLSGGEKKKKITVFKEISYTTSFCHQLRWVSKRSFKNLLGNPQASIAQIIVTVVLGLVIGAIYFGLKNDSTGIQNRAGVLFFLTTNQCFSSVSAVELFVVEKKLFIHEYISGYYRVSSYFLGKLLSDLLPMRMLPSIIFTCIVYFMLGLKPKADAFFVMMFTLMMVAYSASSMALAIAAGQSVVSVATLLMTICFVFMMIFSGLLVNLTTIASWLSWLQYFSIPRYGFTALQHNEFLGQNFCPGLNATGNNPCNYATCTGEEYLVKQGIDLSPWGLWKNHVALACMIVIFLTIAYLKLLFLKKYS", "chain of UniProt P05177 (whole entry, looked up)": "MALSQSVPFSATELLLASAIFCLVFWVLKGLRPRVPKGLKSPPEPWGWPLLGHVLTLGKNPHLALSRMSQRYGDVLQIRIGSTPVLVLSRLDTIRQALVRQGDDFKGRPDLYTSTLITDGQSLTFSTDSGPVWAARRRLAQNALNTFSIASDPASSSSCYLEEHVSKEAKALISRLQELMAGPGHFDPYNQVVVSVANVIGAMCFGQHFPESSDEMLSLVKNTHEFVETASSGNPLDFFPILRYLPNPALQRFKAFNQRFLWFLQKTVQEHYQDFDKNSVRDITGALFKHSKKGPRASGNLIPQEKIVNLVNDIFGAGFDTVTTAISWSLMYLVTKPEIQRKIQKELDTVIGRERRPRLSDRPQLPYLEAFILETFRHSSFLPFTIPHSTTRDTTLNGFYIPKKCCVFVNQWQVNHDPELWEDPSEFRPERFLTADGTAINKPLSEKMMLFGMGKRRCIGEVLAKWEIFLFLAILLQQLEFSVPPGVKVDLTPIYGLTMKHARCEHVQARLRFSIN", "chain of UniProt Q9NPD5 (whole entry, looked up)": "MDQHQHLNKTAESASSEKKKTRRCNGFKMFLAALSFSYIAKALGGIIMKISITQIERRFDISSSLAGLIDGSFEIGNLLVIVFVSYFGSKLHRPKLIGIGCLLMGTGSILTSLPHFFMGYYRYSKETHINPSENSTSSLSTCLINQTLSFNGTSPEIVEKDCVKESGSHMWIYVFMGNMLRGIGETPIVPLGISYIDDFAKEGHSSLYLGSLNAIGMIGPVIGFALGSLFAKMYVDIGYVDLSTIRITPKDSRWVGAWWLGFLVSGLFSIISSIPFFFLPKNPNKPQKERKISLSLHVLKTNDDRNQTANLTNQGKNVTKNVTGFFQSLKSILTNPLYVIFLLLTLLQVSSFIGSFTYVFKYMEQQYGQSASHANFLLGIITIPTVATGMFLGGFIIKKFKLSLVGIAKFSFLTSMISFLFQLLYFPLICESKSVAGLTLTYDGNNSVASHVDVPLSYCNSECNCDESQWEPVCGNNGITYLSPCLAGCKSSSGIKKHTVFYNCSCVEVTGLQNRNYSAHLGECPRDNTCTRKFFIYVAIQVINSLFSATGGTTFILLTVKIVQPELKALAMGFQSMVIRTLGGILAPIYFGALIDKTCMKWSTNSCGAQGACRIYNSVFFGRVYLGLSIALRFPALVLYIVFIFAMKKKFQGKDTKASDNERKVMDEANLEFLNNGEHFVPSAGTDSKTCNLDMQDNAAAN"}
{"SMILES": "O=C(c1ccc(OCCN2CCCCC2)cc1)c1c(-c2ccc(O[C@@H]3O[C@H](C(=O)O)[C@@H](O)[C@H](O)[C@H]3O)cc2)sc2cc(O)ccc12", "target or system": "SLCO1B3 (Homo sapiens, UniProt Q9NPD5)", "test": "substrate", "system": "HEK293 expressing SLCO1B3", "conditions": "pH 7.4", "measurement": "intrinsic clearance", "value": "3.3 µL/min/mg protein"}
{"SMILES": "C[C@@]1(F)[C@H](O)[C@@H](CO)O[C@H]1n1cnc2c(=O)[nH]c(N)nc21", "target or system": "ABCG2", "test": "bidirectional transport", "system": "MDCKII transfected with human BCRP", "conditions": "10 µM", "measurement": "Papp A to B", "value": "2.34 ± 0.25 ×10⁻⁶ cm/s"}
{"SMILES": "N#C[C@@H]1CC(F)(F)CN1C(=O)CNC(=O)c1ccnc2c(NC(=O)[C@H](CCCCNC(=O)CCOCCOCCOCCOCCOCCOCCNC(=O)CN3CCN(CC(=O)[O-])CCN(CC(=O)[O-])CCN(CC(=O)[O-])CC3)NC(=O)CCCc3ccc(I)cc3)cccc12.[177Lu+3]", "target or system": "U-87 MG tumour model", "system": "host not given, pancreas", "conditions": "1 h, tumour-bearing", "measurement": "tracer uptake", "value": "4.31 %ID/g"}
{"SMILES": "COC(=O)Nc1nc2cc(C(O)c3ccc(F)cc3)ccc2[nH]1 (stereo not drawn)", "target or system": "Salmonella typhimurium", "test": "Ames preincubation test", "system": "TA1537", "conditions": "875.0 µg per plate, 3 days, without S9, precipitation", "measurement": "revertants", "value": "15 revertants per plate"}
{"SMILES": "CCN(CC)CC#CCNc1ccnc2cc(Cl)ccc12", "target or system": "Salmonella typhimurium", "test": "mini-Ames test", "system": "TA102", "conditions": "250.0 µg/well, with rat liver S9", "measurement": "mean revertants", "value": "82 revertants/well"}
{"SMILES": "CNC(=O)C1CCCN(C(=O)C2CC3CCC2N3C(=O)[C@@H]2C[C@@H](O)CN2C(=O)NCc2cccc(Cl)c2F)C1 (mixture of isomers)", "target or system": "Cytochrome P450 1A2 (CYP1A2, Homo sapiens, UniProt P05177)", "test": "preincubation with NADPH", "system": "human", "conditions": "16.7 µM", "scale": "baseline: negative control", "measurement": "remaining activity", "value": "110% and 104% and 109%"}
{"SMILES": "CN1CCCNC(=O)c2cccc(c2)C(=O)NCCCN(C)CCCNc2cccc3c2C(=O)c2cccc(c2C3=O)NCCC1", "target or system": "Ca9-22", "test": "cell growth or viability, CCK-8", "conditions": "1 nM, 48 h", "measurement": "viability", "value": "101%"}
{"SMILES": "CN(O)C(=O)CCC(=O)NCCCN(CCCCN(CCCNC(=O)CCC(=O)N(C)O)C(=O)CCC(=O)N(C)O)C(=O)CCC(=O)N(C)O.[89Zr]", "target or system": "TF (Homo sapiens, UniProt P02787)", "test": "transchelation challenge", "conditions": "concentration not given, 7 days, 37 °C, together with: apo-transferrin 10 equiv", "measurement": "transferrin binding", "value": "13 ± 0.4%"}
{"SMILES": "CNc1nc(N)nc2c1ncn2[C@@H]1O[C@H](CO[P@](=O)(O)N[C@@H](C)C(=O)O)[C@@H](O)[C@@]1(C)F", "target or system": "ABCG2", "test": "bidirectional transport", "system": "MDCKII transfected with human BCRP", "conditions": "10 µM, together with: Ko143 1 µM", "measurement": "Papp A to B", "value": "1.15 ± 0.15 ×10⁻⁶ cm/s"}
{"SMILES": "CCN(CC)C(=O)CC(NC(=O)CCc1ccccc1)C(=O)NC(Cc1ccc(F)cc1)C(=O)NC(Cc1ccc(F)cc1F)C(=O)C1(C)CO1 (stereo not drawn)", "target or system": "Trypanosoma brucei brucei", "system": "HepG2 cells, Lister 427", "scale": "baseline: HepG2 CC50 over T. brucei EC50", "measurement": "selectivity index", "value": 64}
{"SMILES": "O=C(Nc1cnccc1-c1ccc([18F])nc1)c1ccnc(NC(=O)C2CC2)c1", "system": "FVB/NJ mice (both sexes), small intestine", "conditions": "intravenous, dose not given, 120 min", "measurement": "SUV", "value": 1.99}
{"SMILES": "O=C1NC2(CC2)COc2ncc(F)cc2[C@H]2COCCN2c2ccn3ncc1c3n2", "target or system": "Salmonella typhimurium", "test": "Ames test", "system": "TA102", "conditions": "500 µg/plate, 48 h, together with: rat liver S9", "measurement": "revertant colonies", "value": "422 ± 10 revertants/plate"}
{"SMILES": "CNc1nc(N)nc2c1ncn2[C@@H]1O[C@H](CO)[C@@H](O)[C@@]1(C)F", "target or system": "ABCG2", "test": "bidirectional transport", "system": "MDCKII transfected with human BCRP", "conditions": "10 µM", "measurement": "Papp A to B", "value": "5.82 ± 0.25 ×10⁻⁶ cm/s"}
{"SMILES": "O=C1C2CC3CC1CC(C(=O)N1CCN(c4ccc([N+](=O)[O-])c5ncccc45)CC1)(C3)C2", "target or system": "Salmonella typhimurium", "test": "Ames test", "system": "TA100", "conditions": "0.13 µg/well, without S9", "measurement": "mean revertant colonies", "value": "20 colonies/well"}
{"SMILES": "N#Cc1cccc(-c2ccc(=O)n(Cc3cccc(-c4ncc(OCC5CCN(CC(=O)N6CCN(c7ccc8c(c7)C(=O)N(C7CCC(=O)NC7=O)C8=O)CC6)CC5)cn4)c3)n2)c1 (stereo not drawn)", "target or system": "Caco-2", "test": "transwell monolayer", "conditions": "2 µM, 120 min, pH 7.4, 0.1% DMSO", "measurement": "efflux ratio", "value": 12.8}
{"SMILES": "C=C(NC(=O)c1csc(-c2nc3c(cc2O)-c2nc(cs2)C(=O)NC(C(C)O)C(=O)NC(=C(C)OC)c2nc(cs2)C(=O)NC2c4nc(cs4)C(=O)NC(COC(=O)c4c5c6c(cccc6n4O)COC(=O)C(OC4CC(C)(O)C(N(C)C)C(C)O4)C2OC5)c2nc-3cs2)n1)C(N)=O (stereo not drawn)", "system": "female cynomolgus monkey, plasma", "conditions": "intravenous, 3 mg/kg, single dose, infusion", "measurement": "Tmax", "value": "21.6 min"}
{"SMILES": "CC(C)OCCOCc1ccc(OCC(O)CN(N=O)C(C)C)cc1 (stereo not drawn)", "target or system": "Salmonella typhimurium", "test": "Ames test", "system": "TA98", "conditions": "500 µg/plate, 30 % hamster S9", "scale": "baseline: solvent control", "measurement": "revertant fold increase", "value": "0.9 fold"}
{"SMILES": "CC(C)Cc1ccc(C(C)C(=O)N[C@@H](CCCCNC(=O)CCOCCOCCOCCOCCOCCOCCNC(=O)CN2CCN(CC(=O)[O-])CCN(CC(=O)[O-])CCN(CC(=O)[O-])CC2)C(=O)Nc2cccc3c(C(=O)NCC(=O)N4CC(F)(F)C[C@H]4C#N)ccnc23)cc1.[177Lu+3] (stereo partly drawn)", "target or system": "U-87 MG tumour model", "system": "host not given, liver", "conditions": "48 h, tumour-bearing", "measurement": "tracer uptake", "value": "2.42 %ID/g"}
{"SMILES": "COc1cccc(OC)c1-c1cc(C(=O)NC2(C(=O)O)C3CC4CC(C3)CC2C4)nn1-c1ccc(C(=O)N(C)CCCN(C)CCCN(C)C(=O)[C@H](CCCCNC(=O)[C@H](CC(C)C)NC(=O)C2OC2C(=O)O)NC(=O)CN2CCN(CC(=O)[O-])CCN(CC(=O)[O-])CCN(CC(=O)[O-])CC2)cc1C(C)C.[177Lu+3] (mixture of isomers)", "target or system": "HT-29 tumour model", "system": "host not given, bone", "conditions": "72 h, tumour-bearing", "measurement": "tracer uptake", "value": "0.19 %ID/g"}
{"SMILES": "CCCCCC(=O)N[C@H](C(=O)N[C@@H](CCCC)C(=O)N[C@@H](CC(C)C)C(=O)[C@@]1(C)CO1)C(C)C", "target or system": "Trypanosoma brucei brucei", "system": "HepG2 cells, Lister 427", "scale": "baseline: HepG2 CC50 over T. brucei EC50", "measurement": "selectivity index", "value": "< 1"}
{"SMILES": "N#C[C@@H]1CCCN1C(=O)CNC(=O)c1ccnc2ccc(OCCCN3CCN(C(=O)CCc4ccc5c(c4)CN4CCN(Cc6cc(CCC(=O)O)ccc6O)CC(=O)[O][Al-]([18F])([O]C(=O)C4)[O]5)CC3)cc12 (stereo partly drawn)", "target or system": "U-87 MG tumour model", "system": "host not given, liver", "conditions": "2 h, tumour-bearing", "measurement": "tracer uptake", "value": "0.95 %ID/g"}
